# Published values from different studies.
# Numbered parts are unrelated; each lists some results of a single study.

# Set 1 — technique: protein-binding microarray; form: double-stranded DNA, one strand shown; sample: in vitro; concentration: 2540 nM top; setting: 60-bp whole probe; added: salmon DNA 0.4 mg/ml; baseline: random background probes; reading: higher = stronger binding; all sequences stand within: GCCTAGCAC … GTCTTGATTCGCTTGACGCTGCTG
# Target: Interferon regulatory factor 3, full length, phosphomimetic (IRF3, Homo sapiens, UniProt Q14653, residues 1-427, S386D/S396D/S398D/S402D/T404D/S405D)
# Chain of UniProt Q14653 (whole entry, unmodified, looked up): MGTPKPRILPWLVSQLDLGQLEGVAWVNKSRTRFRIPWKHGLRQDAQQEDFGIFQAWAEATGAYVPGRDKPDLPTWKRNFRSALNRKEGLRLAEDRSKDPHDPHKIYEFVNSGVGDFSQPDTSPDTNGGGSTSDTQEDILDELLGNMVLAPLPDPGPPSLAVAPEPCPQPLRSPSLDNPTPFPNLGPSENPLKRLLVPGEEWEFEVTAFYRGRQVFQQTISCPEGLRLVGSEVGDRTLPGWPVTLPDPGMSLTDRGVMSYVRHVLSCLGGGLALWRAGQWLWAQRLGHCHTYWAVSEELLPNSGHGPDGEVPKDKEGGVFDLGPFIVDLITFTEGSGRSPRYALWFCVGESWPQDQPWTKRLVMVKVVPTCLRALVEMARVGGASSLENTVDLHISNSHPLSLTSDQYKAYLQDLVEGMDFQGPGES
Sequence,fitted relative affinity [z-score]
TCAACTAGGAGTTTTCAGACTGTGCTA,0.409
GACGGACTGCTACTGCTAACGTGCTAG,-0.635
GGCGAACTGGGGACTGGAGACGTGCTA,-0.964
ATAGGTTTCCTTCTCCTTTAGTGCTAG,10.1
CTCTTTTTGCTTTCTTTATGGTGCTAG,2.65
GACGGTTTCCTTTCCCAGACGTGCTAG,9.86
GACGGACTGCTTTTCCTGAAGTGCTAG,-0.211
TCAGTCATCCATCTGAAACTGTGCTAG,0.317
TTAGGTAGCGGGTATCGGTTAGTGCTA,0.404
GACGAACTGGGGTATCTAGACGTGCTA,-0.44
GACTATTTCAGACTGGAGACGTGCTAG,0.74
TCACCTCTCCATACTTCACTGTGCTAG,1.04
ACGTAGAAGGAAGAAGCACGGTGCTAG,-0.461
TCAGAAATTTCTTTCTAACTGTGCTAG,0.987
GAGGATTTCAGTTTCGAGACGTGCTAG,4.1
GTTTTTCTCCTATTTAAGACGTGCTAG,3.1
GACGGACTGCTTATCCTGCCGTGCTAG,-0.483
TCATTTTGTGTTTTCATACTGTGCTAG,2.15
TTACAACTGGGGACTGGATTAGTGCTA,-0.574

# Set 2 — technique: universal PBM; form: double-stranded DNA, one strand shown; sample: in vitro; concentration: 600 nM; reading: higher = stronger binding
# Target: Sal-like protein 4, full length isoform A (SALL4, Homo sapiens, UniProt Q9UJQ4, residues 1-1053)
# Chain of UniProt Q9UJQ4 (whole entry, looked up): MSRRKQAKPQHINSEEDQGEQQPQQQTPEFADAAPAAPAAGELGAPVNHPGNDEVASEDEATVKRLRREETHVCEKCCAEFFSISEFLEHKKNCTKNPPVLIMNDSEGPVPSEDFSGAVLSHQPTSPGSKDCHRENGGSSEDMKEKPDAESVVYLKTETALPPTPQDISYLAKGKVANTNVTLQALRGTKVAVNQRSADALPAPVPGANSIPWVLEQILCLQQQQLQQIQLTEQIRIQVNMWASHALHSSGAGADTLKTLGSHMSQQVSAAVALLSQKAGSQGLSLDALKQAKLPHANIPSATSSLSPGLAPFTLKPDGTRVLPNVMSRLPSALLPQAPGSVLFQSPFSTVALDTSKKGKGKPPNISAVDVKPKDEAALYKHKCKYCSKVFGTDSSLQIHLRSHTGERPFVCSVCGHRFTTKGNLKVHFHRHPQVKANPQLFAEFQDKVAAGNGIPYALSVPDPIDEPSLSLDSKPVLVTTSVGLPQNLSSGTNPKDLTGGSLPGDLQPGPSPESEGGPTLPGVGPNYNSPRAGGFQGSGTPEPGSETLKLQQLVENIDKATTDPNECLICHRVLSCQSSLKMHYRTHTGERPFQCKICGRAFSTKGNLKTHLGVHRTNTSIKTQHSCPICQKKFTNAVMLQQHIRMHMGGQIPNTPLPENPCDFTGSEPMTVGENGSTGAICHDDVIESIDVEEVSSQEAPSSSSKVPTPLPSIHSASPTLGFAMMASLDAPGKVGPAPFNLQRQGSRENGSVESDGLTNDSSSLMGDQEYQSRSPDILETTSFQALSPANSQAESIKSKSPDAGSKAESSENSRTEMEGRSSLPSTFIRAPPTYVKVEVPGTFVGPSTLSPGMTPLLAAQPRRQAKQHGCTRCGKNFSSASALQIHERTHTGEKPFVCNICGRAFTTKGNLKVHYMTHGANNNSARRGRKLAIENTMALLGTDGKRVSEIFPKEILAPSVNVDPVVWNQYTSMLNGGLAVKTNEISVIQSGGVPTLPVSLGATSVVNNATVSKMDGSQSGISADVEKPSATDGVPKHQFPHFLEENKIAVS
# Setting: 8-mer, flanks averaged, mean of replicates
Sequence,E-score
TAAAATCA,0.249
GTCTGTCA,0.00575
CCAGAGGA,-0.13
ACACTAGT,0.018
CCGAAGAA,-0.0634
CTAGTCGC,-0.261
AAGGTCGG,-0.0902
AGACGGTC,-0.223
CGTGTGAC,-0.149
AACTTTAC,0.152
CTCCCAGC,-0.266
ATGCGCGA,-0.144
CCGAGCGA,-0.14
TCTCCGCA,-0.208
ATTCGCTA,0.0847
GAGAATCC,-0.194

# Set 3 — technique: protein binding microarray; form: double-stranded DNA, one strand shown; sample: in vitro; concentration: not given; baseline: not given; reading: higher = stronger binding
# Target: Histone acetyltransferase KAT6A, winged helix 1, GST fusion (KAT6A, Homo sapiens, UniProt Q92794, residues 1-85)
# Setting: 8-mer, flanks averaged, mean of 2 arrays, mostly near background
# Target sequence (chain): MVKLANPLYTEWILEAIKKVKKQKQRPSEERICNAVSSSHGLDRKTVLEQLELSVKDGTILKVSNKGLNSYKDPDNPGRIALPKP
Sequence,E-score
AAACCGGA,-0.0426
CTCCCTTC,-0.14
GCGAAGCC,0.219
CCGGAAGA,0.121
GAAGAAAA,-0.216
GCTTGTAC,0.0974
CTCGCCTA,-0.014
GTGCCCGA,0.0719
GAGAGTCA,-0.146
CAGGCACA,-0.213
CAGCCGAC,0.35
GCGACCTA,0.106
AAACTATA,0.00826
CATACAAC,-0.0722
CTTAGGTA,-0.244
ACCGTCGC,0.419
GCAGCAGC,-0.0306
ATGCAATC,-0.135
TGTTGTAA,-0.0356
ACCATCGC,0.105
GTTAAGCA,0.0989
ATAAATAC,-0.141

# Set 4 — organism: Saccharomyces cerevisiae; read-out: binding; technique: competitive growth deep sequencing; form: peptide; strain: cyclin D3-Cln2 fusion strain; setting: peptide tiling library; reading: direction not given
Molecule,enrichment score
SSEVARHLLFQSHM,-2.03
GLPDFVFQQQPVESEA,-0.155
PKNAKRNLSSEFAN,-1.11
PARRRLRLSVDEVSSP,-1.53
IVLICAKRSLCAAFSV,-1.83
PKRAKRKLYTSEISSP,-0.657
DGCSPIKNWSPMRL,-0.202
VLVRTSACRSLFGPVD,-1.26
KRNLLNEFDRII,0.504
KPKPVKPVTFSTGIKM,1.32
PAKRRLELGE,-0.0236
SMTDFYHSKRRLIFSK,-1.78
TARRIFQEPTEPKTKA,0.342
FQDSGYNELKSCSFDN,0.0981
SAVPLILPQAPSGPSY,1.7

# Excerpt of the above (set 3):
Sequence,E-score
GTGCCCGA,0.0719
GAGAGTCA,-0.146
CAGGCACA,-0.213
CAGCCGAC,0.35
GCGACCTA,0.106
AAACTATA,0.00826
CATACAAC,-0.0722
CTTAGGTA,-0.244
